Measurements pooled from the literature.
± gives the spread as reported.
Target: D(1A) dopamine receptor (DRD1, Homo sapiens, UniProt P21728)
Sequence of UniProt P21728 (whole entry, looked up): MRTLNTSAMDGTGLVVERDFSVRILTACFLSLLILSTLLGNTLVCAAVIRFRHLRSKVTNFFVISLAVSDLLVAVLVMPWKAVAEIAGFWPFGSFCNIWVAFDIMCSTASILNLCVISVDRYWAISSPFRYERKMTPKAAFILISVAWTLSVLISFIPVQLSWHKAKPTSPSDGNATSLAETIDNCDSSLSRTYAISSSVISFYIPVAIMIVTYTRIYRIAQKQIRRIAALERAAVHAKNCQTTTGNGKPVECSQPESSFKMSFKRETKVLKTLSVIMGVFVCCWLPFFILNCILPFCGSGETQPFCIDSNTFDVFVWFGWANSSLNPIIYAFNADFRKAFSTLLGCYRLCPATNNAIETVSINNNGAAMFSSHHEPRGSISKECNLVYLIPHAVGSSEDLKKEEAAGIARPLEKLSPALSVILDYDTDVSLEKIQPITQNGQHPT

| Compound | assay | system | conditions | inhibition |
| --- | --- | --- | --- | --- |
| CCCOc1c(O)cc(Br)c2c1CN1CCc3cc(OCC(F)F)c(O)cc3[C@@H]1C2 | cAMP level, antagonist, TR-FRET | U2OS expressing human D1R | concentration not given, added: dopamine 10 nM | 96 ± 1% |
| Clc1cccc(OC[C@H]2CN(CCN3CCc4ccccc43)CCO2)c1 | radioligand binding | – | concentration not given, added: [3H]SCH23390 | 31% |
| OCCCN1CC[C@@H]2C[C@H]1c1cc(-c3ccc(C(F)(F)F)cc3)ccc12 | radioligand binding, PDSP competition binding | – | 10 µM | < 50% |
| O=C(CN1CCO[C@H](COc2ccccc2)C1)N1CCc2ccccc21 | radioligand binding | – | concentration not given, added: [3H]SCH23390 | 21.3% |
| CCCOc1cc2c(cc1O)[C@@H]1Cc3c(Br)cc(O)c(OCC(F)F)c3CN1CC2 | cAMP level, antagonist, TR-FRET | U2OS expressing human D1R | concentration not given, added: dopamine 10 nM | 89 ± 1% |
| CCS(=O)(=O)c1nc(S(=O)(=O)c2ccccc2Cl)c(N2CCN(C)C(=O)[C@H]2C)s1 | – | – | 10 µM | 0.87% |
| COc1cccc(OC[C@@H]2CN(CCN3CCc4ccccc43)CCO2)c1 | radioligand binding | – | concentration not given, added: [3H]SCH23390 | 48.7% |
| O=C(NO)c1ccc(CN2CCCCc3ccccc32)c(F)c1 | radioligand binding, radioligand displacement | – | 10 µM, mean of replicates | 26.4% |
| CN(C(=O)n1cnc(-c2ccc[n+]([O-])c2)c1)C1CCCCC1 | – | – | 10 µM | 21.3% |
| Oc1cc2c(cc1OCC(F)F)CCN1Cc3c(c(Br)cc(O)c3OCC(F)F)C[C@@H]21 | cAMP level, antagonist, TR-FRET | U2OS expressing human D1R | concentration not given, added: dopamine 10 nM | 94 ± 1% |
| COc1cc(Cl)c(C(=O)N[C@@H](CN[C@H]2CC[C@@H](N)CC2)Cc2ccc(C#N)cc2)cc1-c1ccc(CN[C@H](C)c2ccc(C)cc2)o1 | agonist response, antagonist | human cells | 10 µM, D1 antagonist | -13% |

Some of these lines once more:
| Compound | assay | system | conditions | inhibition |
| --- | --- | --- | --- | --- |
| OCCCN1CC[C@@H]2C[C@H]1c1cc(-c3ccc(C(F)(F)F)cc3)ccc12 | radioligand binding, PDSP competition binding | – | 10 µM | < 50% |
